Measured values pooled from the literature.
“And” joins repeats or separate records; there may be more than shown. ± gives the spread as reported.
Albumin: Albumin (Mus musculus, UniProt P07724)
UniProt P07724, sequence (whole entry, looked up): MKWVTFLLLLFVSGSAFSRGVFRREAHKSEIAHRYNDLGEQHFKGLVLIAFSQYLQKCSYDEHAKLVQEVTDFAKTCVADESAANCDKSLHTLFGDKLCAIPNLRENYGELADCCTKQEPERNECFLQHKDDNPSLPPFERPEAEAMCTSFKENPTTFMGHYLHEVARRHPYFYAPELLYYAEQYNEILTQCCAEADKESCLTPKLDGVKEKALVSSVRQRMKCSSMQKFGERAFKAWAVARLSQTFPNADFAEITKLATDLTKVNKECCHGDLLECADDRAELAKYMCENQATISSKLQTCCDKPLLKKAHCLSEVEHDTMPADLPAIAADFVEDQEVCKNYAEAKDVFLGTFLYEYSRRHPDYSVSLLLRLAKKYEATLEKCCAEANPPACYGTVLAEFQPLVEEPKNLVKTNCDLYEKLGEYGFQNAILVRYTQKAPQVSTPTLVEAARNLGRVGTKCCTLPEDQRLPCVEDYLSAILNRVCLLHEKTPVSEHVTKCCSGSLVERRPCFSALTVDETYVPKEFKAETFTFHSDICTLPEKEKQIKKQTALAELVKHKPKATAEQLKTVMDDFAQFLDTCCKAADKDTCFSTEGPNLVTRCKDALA
TDP1: Tyrosyl-DNA phosphodiesterase 1 (TDP1, Homo sapiens, UniProt Q9NUW8)
UniProt P10632, sequence (whole entry, looked up): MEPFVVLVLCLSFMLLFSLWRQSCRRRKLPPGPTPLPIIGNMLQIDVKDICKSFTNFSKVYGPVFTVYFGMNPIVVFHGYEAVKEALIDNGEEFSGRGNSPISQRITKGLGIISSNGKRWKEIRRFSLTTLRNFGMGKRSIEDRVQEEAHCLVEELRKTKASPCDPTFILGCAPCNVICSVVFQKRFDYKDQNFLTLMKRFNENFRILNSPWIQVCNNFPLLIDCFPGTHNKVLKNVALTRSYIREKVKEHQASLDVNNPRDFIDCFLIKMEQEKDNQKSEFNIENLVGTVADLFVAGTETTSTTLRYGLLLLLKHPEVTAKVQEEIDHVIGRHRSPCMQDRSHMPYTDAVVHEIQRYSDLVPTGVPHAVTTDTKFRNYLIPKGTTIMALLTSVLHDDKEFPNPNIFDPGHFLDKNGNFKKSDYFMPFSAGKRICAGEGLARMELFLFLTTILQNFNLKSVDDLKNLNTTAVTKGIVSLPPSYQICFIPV
UniProt Q9NUW8, sequence (whole entry, looked up): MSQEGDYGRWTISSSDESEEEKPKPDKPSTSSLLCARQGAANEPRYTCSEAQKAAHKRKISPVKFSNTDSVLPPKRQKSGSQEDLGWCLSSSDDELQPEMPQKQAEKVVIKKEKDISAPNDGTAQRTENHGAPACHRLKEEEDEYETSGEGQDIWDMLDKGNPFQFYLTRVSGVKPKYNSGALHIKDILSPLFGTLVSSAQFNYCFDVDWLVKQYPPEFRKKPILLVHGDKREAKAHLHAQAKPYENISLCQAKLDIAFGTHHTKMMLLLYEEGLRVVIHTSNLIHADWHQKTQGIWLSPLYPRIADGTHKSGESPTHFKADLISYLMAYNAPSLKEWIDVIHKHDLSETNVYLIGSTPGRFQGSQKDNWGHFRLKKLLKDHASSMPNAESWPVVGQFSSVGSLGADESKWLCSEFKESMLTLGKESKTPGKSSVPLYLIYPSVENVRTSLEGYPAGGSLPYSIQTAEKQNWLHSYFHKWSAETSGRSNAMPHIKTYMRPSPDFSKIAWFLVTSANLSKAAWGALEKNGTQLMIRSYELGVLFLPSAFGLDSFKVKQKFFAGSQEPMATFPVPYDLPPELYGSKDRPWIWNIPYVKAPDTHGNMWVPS

CN1CCN(c2ccc3[nH]c(-c4ccc5[nH]c(-c6ccc(OCCCCNC(=O)c7ccc8c(c7)C(=O)OC87c8ccc(N(C)C)cc8C(C)(C)c8cc(N(C)C)ccc87)cc6)nc5c4)nc3c2)CC1 — result for “fluorescence quantum yield”: 0.04 ± 0.02 (Albumin; PBS; 1 µM, 1 h, together with: 25 mg/mL albumin).
For COC(=O)Nc1nc2cc(C(O)c3ccc(F)cc3)ccc2[nH]1 (centres unmarked), the revertants was 37.3 revertants/plate (Escherichia coli; Ames preincubation test; WP2 uvrA; 437.5 µg/plate, without S9).
Cc1cc(O)c(=O)c(O)cc1C(=O)c1ccc([N+](=O)[O-])cc1 gave a CC50 of 45.4 µM (HepDES19; cell growth or viability, MTS; 72 h).
Under “mean revertant colonies”, O=C1C2CC3CC1CC(C(=O)N1CCN(c4ccc([N+](=O)[O-])c5ncccc45)CC1)(C3)C2 is recorded as 5 colonies/well (Salmonella typhimurium; Ames test; TA98; 0.31 µg/well, with S9).
N#C[C@@H]1CC(F)(F)CN1C(=O)CNC(=O)c1ccnc2c(NC(=O)CCOCCOCCOCCOCCOCCOCCNC(=O)[C@H](CCCCNC(=O)CN3CCN(CC(=O)[O-])CCN(CC(=O)[O-])CCN(CC(=O)[O-])CC3)NC(=O)CCCc3ccc(I)cc3)cccc12.[177Lu+3] has a tracer uptake of 0.37 %ID/g (U-87 MG tumour model; host not given, pancreas; 24 h, tumour-bearing).
For CNC(=O)C1CCCN(C(=O)C2CC3CCC2N3C(=O)[C@@H]2C[C@@H](O)CN2C(=O)NCc2cccc(Cl)c2F)C1 (mixture of isomers), the remaining activity was 93.6% and 106% and 71.1% (Cytochrome P450 2C8 (CYP2C8, Homo sapiens, UniProt P10632); preincubation with NADPH; human; 5.56 µM; baseline: negative control).
For COc1cccc(OC)c1-c1cc(C(=O)NC2(C(=O)O)C3CC4CC(C3)CC2C4)nn1-c1ccc(C(=O)N(C)CCCN(C)C(=O)[C@H](CCCCNC(=O)[C@H](CC(C)C)NC(=O)C2OC2C(=O)O)NC(=O)CN2CCN(CC(=O)[O-])CCN(CC(=O)[O-])CCN(CC(=O)[O-])CC2)cc1C(C)C.[177Lu+3] (mixture of isomers), the tracer uptake was 0.0008 %ID/g (HT-29 tumour model; host not given, blood; 7 days, tumour-bearing).
The intracellular accumulation of Cn1nnnc1NCc1nn(C)c2nc(N)[nH]c(=O)c2c1=O is reported as 7.48 ± 0.3 µM (Escherichia coli; LC-MS/MS; BW25113; 100 µM, 10 min, 37 °C).
The CC50 of COC(=O)c1cc(O)c(=O)c(OC)cc1C is reported as over 100 µM (HepDES19; cell growth or viability, MTS; 72 h).
Nc1nc2cc(C(=O)c3ccc(F)cc3)ccc2[nH]1 gave a revertants of 10.3 revertants/plate (Salmonella typhimurium; Ames preincubation test; TA1537; 39.0 µg/plate, without S9).
For O=C1NC2(CC2)COc2ncc(F)cc2[C@H]2COCCN2c2ccn3ncc1c3n2, the revertant colonies was 104 ± 6 revertants/plate (Salmonella typhimurium; Ames test; TA97a; 50 µg/plate, 48 h, together with: rat liver S9).
CC(C)Cc1ccc(C(C)C(=O)N[C@@H](CCCCNC(=O)CCOCCOCCOCCOCCOCCOCCNC(=O)CN2CCN(CC(=O)[O-])CCN(CC(=O)[O-])CCN(CC(=O)[O-])CC2)C(=O)Nc2cccc3c(C(=O)NCC(=O)N4CC(F)(F)C[C@H]4C#N)ccnc23)cc1.[177Lu+3] (some centres unmarked) has a tracer uptake of 9.1 %ID/g (U-87 MG tumour model; host not given, tumour; 24 h, tumour-bearing).
N#C[C@@H]1CCCN1C(=O)CNC(=O)c1ccnc2ccc(OCCCN3CCN(C(=O)CCc4ccc5c(c4)CN4CCN6CC(=O)[O][68Ga-]([O]C(=O)C4)([O]5)[O]c4ccc(CCC(=O)N5CCN(CCCOc7ccc8nccc(C(=O)NCC(=O)N9CCC[C@H]9C#N)c8c7)CC5)cc4C6)CC3)cc12 has a tracer uptake of 3.1 %ID/g (U-87 MG tumour model; host not given, intestine; 1 h, tumour-bearing).
C=C(NC(=O)c1csc(-c2nc3c(cc2O)-c2nc(cs2)C(=O)NC(C(C)O)C(=O)NC(=C(C)OC)c2nc(cs2)C(=O)NC2c4nc(cs4)C(=O)NC(COC(=O)c4c5c6c(cccc6n4O)COC(=O)C(OC4CC(C)(O)C(N(C)C)C(C)O4)C2OC5)c2nc-3cs2)n1)C(N)=O (centres unmarked) has an AUC(0-inf) of 2930 ng·h/mL (ICR mice, Streptococcus pneumoniae ATCC 49169 infected, immunocompromised, blood; intravenous, 32 mg/kg/day three times daily).
For N#C[C@@H]1CC(F)(F)CN1C(=O)CNC(=O)c1ccnc2c(NC(=O)[C@H](CCCCNC(=O)CCOCCOCCOCCOCCOCCOCCNC(=O)CN3CCN(CC(=O)[O-])CCN(CC(=O)[O-])CCN(CC(=O)[O-])CC3)NC(=O)CCCc3ccc(I)cc3)cccc12.[177Lu+3], the tracer uptake was 0.13 %ID/g (U-87 MG tumour model; host not given, pancreas; 96 h, tumour-bearing).
Under “SUV over first 5 min”, O=C(Nc1cnccc1-c1ccc([18F])cc1)c1ccnc(NC(=O)C2CC2)c1 is recorded as 0.75 ± 0.21 (PET imaging; FVB/NJ mice, both sexes, brain; intravenous, 5 min post-injection, P-gp inhibited, together with: tariquidar 15 mg/kg iv, 2 h before).
With Cc1cc(O)c(=O)c(O)cc1C(=O)c1cccc([N+](=O)[O-])c1 the CC50 was 20 µM (HepDES19; cell growth or viability, MTS; 72 h).
With CN1CCN(c2ccc3[nH]c(-c4ccc5[nH]c(-c6ccc(OCCCCNC(=O)c7cccc8c7C(=O)OC87c8ccc(N(C)C)cc8C(C)(C)c8cc(N(C)C)ccc87)cc6)nc5c4)nc3c2)CC1 the Kd was 19 ± 15 µM (Albumin; binding, fluorescence titration; PBS; 1 h).
For Cc1cc(O)c(=O)c(O)cc1C(=O)O, the CC50 was 50 µM (HepDES19; cell growth or viability, MTS; 72 h).
The inhibition of COn1c(-c2ccccc2)c(C=NOCc2ccc3nc(-c4ccccc4)c(Nc4ccc(C(=O)O)cc4)n3c2)c2ccccc21 is reported as 34% (TDP1; enzyme activity, inhibitor; 100 µM, unpurified compound).
Under “revertant fold increase”, CC(C)OCCOCc1ccc(OCC(O)CN(N=O)C(C)C)cc1 (centres unmarked) is recorded as 0.9 fold (Salmonella typhimurium; Ames test; TA1535; 5 µg/plate, 30 % rat S9; baseline: solvent control).
With CCOc1cccc2ccc(C=NOCc3ccc(-c4nc5cc(-c6ccccc6)ccn5c4Nc4ccc(C(=O)O)cc4)cc3)nc12 the inhibition was 89% (TDP1; enzyme activity, inhibitor; 100 µM, unpurified compound).
With O=c1ccccc(Br)c1O the CC50 was 95.6 µM (HepDES19; cell growth or viability, MTS; 72 h).
For COc1ccc(NC2(C#N)C(=O)Nc3ccccc32)cc1 (centres unmarked), the IC50 was 32.2 µM (Uncharacterized protein (Trypanosoma brucei brucei, UniProt Q386Q8); enzyme activity, inhibitor, coupled colorimetric; together with: E. coli pyrophosphatase coupling).
With CCN(CC)CC#CCNc1ccnc2cc(Cl)ccc12 the revertants was 15 revertants/well and 19 revertants/well (Salmonella typhimurium; mini-Ames test; TA98; 500.0 µg/well, with rat liver S9).
With COCc1cc(O)c(=O)c(O)c(C(=O)OC)c1C(=O)OC the CC50 was 112 µM (HepDES19; cell growth or viability, MTS; 72 h).
The tracer uptake of COc1cccc(OC)c1-c1cc(C(=O)NC2(C(=O)O)C3CC4CC(C3)CC2C4)nn1-c1ccc(C(=O)NCCNC(=O)[C@H](CCCCNC(=O)[C@H](CC(C)C)NC(=O)C2OC2C(=O)O)NC(=O)CN2CCN(CC(=O)[O-])CCN(CC(=O)[O-])CCN(CC(=O)[O-])CC2)cc1C(C)C.[177Lu+3] (mixture of isomers) is reported as 0.4 %ID/g (HT-29 tumour model; host not given, bone; 7 days, tumour-bearing).
With CN(C)c1ccc2c(c1)C(C)(C)c1cc(N(C)C)ccc1C21OC(=O)c2c(C(=O)O)cccc21 the Kd was 10 ± 2 µM (Albumin; binding, fluorescence titration; PBS).
For Cc1cc(O)c(=O)c(O)cc1C(=O)c1ccco1, the CC50 was 40 µM (HepDES19; cell growth or viability, MTS; 72 h).
The tracer uptake of COc1cccc(OC)c1-c1cc(C(=O)NC2(C(=O)O)C3CC4CC(C3)CC2C4)nn1-c1ccc(C(=O)N(C)CCOCCOCCN(C)C(=O)[C@H](CCCCNC(=O)[C@H](CC(C)C)NC(=O)C2OC2C(=O)O)NC(=O)CN2CCN(CC(=O)[O-])CCN(CC(=O)[O-])CCN(CC(=O)[O-])CC2)cc1C(C)C.[177Lu+3] (mixture of isomers) is reported as 0.026 %ID/g (HT-29 tumour model; host not given, stomach; 72 h, tumour-bearing).
With Cc1ccccc1C(=O)Oc1cccccc1=O the CC50 was over 100 µM (HepDES19; cell growth or viability, MTS; 72 h).
For N#C[C@@H]1CCCN1C(=O)CNC(=O)c1ccnc2ccc(OCCCN3CCN(C(=O)CCc4ccc(O)c(CN5CCN6CC(=O)[O][Al-]([18F])([O]C(=O)C5)[O]c5ccc(CCC(=O)N7CCN(CCCOc8ccc9nccc(C(=O)NCC(=O)N%10CCC[C@H]%10C#N)c9c8)CC7)cc5C6)c4)CC3)cc12 (some centres unmarked), the tracer uptake was 2.3 %ID/g (U-87 MG tumour model; host not given, muscle; 2 h, tumour-bearing).

A few entries again:
For COc1ccc(NC2(C#N)C(=O)Nc3ccccc32)cc1 (centres unmarked), the IC50 was 32.2 µM (Uncharacterized protein (Trypanosoma brucei brucei, UniProt Q386Q8); enzyme activity, inhibitor, coupled colorimetric; together with: E. coli pyrophosphatase coupling).
With CCN(CC)CC#CCNc1ccnc2cc(Cl)ccc12 the revertants was 15 revertants/well and 19 revertants/well (Salmonella typhimurium; mini-Ames test; TA98; 500.0 µg/well, with rat liver S9).
With COCc1cc(O)c(=O)c(O)c(C(=O)OC)c1C(=O)OC the CC50 was 112 µM (HepDES19; cell growth or viability, MTS; 72 h).
The tracer uptake of COc1cccc(OC)c1-c1cc(C(=O)NC2(C(=O)O)C3CC4CC(C3)CC2C4)nn1-c1ccc(C(=O)NCCNC(=O)[C@H](CCCCNC(=O)[C@H](CC(C)C)NC(=O)C2OC2C(=O)O)NC(=O)CN2CCN(CC(=O)[O-])CCN(CC(=O)[O-])CCN(CC(=O)[O-])CC2)cc1C(C)C.[177Lu+3] (mixture of isomers) is reported as 0.4 %ID/g (HT-29 tumour model; host not given, bone; 7 days, tumour-bearing).
With CN(C)c1ccc2c(c1)C(C)(C)c1cc(N(C)C)ccc1C21OC(=O)c2c(C(=O)O)cccc21 the Kd was 10 ± 2 µM (Albumin; binding, fluorescence titration; PBS).
